# Results pooled from the literature.
# Numbered parts are unrelated; each lists some results of a single study.
# Chain of UniProt Q96Q40 (whole entry, looked up): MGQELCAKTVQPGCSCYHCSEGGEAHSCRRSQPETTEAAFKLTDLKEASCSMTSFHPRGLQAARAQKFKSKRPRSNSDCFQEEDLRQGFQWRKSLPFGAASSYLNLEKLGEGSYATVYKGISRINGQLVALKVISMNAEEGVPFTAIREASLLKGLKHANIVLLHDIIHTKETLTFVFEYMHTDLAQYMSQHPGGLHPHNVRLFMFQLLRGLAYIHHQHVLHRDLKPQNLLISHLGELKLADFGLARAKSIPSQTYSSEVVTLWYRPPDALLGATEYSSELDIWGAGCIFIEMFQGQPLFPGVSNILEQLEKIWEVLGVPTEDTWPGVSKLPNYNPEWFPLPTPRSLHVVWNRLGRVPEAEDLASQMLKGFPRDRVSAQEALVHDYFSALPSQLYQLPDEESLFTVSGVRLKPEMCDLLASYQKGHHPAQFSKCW
# Chain of UniProt Q9H422 (whole entry, looked up): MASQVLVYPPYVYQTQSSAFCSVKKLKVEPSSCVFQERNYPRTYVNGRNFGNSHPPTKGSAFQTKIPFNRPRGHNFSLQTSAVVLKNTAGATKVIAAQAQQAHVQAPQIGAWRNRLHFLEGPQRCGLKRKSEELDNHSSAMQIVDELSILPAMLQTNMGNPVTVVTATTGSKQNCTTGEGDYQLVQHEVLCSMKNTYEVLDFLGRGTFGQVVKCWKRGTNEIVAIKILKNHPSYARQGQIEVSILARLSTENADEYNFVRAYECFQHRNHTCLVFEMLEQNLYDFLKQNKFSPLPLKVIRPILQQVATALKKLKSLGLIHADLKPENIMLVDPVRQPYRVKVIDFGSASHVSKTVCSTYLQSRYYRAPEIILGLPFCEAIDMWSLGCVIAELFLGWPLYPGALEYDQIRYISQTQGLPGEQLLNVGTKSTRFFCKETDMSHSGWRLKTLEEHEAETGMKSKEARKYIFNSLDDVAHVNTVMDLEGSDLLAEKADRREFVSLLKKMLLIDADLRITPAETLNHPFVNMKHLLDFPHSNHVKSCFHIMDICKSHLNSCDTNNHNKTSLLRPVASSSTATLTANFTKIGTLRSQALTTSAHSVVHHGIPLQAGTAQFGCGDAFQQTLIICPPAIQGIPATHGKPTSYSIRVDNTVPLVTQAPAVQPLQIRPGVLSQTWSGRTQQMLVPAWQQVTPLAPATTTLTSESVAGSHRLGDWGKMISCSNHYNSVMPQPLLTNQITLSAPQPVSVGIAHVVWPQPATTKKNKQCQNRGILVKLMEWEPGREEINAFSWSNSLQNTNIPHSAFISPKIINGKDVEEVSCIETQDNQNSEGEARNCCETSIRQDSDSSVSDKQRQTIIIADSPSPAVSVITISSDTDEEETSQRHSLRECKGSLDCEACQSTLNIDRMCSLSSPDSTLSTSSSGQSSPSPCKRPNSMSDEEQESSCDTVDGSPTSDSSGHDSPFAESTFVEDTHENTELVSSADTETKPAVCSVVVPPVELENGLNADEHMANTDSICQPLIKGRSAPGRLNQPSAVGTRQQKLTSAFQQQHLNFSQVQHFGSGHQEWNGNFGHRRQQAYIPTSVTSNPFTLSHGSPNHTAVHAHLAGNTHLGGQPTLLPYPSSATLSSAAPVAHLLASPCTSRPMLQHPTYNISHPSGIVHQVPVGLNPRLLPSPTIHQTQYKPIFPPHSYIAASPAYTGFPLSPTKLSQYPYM
# Chain of UniProt P53778 (whole entry, looked up): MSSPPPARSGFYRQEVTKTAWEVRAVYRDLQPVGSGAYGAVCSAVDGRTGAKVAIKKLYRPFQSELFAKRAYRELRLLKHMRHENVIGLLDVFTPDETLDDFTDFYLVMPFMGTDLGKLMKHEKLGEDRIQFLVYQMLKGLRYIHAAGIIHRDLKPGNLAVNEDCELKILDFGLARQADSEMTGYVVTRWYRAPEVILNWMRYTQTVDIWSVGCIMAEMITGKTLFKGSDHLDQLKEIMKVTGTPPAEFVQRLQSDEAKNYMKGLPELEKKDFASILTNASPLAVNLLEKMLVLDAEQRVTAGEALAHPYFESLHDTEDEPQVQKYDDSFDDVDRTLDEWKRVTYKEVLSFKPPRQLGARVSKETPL
# Chain of UniProt P42336 (whole entry, looked up): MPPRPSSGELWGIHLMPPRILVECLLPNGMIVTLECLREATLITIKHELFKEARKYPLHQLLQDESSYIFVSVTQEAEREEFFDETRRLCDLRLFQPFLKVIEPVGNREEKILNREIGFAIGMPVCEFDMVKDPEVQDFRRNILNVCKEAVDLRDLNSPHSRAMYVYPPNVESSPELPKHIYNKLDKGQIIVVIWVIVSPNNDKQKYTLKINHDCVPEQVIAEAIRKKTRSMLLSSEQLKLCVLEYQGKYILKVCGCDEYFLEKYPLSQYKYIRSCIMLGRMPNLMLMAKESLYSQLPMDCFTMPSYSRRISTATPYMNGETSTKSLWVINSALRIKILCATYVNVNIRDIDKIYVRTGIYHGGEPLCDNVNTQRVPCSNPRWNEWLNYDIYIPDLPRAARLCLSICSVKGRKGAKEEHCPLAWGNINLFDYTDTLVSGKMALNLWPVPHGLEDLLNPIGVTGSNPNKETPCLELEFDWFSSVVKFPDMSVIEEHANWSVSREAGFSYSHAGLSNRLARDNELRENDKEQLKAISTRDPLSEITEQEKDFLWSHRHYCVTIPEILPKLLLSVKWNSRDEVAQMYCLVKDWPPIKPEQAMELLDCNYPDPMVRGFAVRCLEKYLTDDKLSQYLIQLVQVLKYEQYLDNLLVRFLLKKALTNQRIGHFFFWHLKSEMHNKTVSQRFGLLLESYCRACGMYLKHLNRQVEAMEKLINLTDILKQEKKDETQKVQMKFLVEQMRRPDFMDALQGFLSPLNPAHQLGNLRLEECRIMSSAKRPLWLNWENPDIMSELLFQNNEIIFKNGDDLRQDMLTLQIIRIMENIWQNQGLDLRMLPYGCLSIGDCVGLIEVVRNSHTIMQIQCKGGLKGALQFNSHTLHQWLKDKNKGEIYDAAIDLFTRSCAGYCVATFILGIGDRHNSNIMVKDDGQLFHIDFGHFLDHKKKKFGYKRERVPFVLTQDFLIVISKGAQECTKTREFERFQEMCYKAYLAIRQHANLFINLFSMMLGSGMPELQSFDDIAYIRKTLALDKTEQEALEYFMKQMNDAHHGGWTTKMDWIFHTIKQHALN
# Chain of UniProt P68400 (whole entry, looked up): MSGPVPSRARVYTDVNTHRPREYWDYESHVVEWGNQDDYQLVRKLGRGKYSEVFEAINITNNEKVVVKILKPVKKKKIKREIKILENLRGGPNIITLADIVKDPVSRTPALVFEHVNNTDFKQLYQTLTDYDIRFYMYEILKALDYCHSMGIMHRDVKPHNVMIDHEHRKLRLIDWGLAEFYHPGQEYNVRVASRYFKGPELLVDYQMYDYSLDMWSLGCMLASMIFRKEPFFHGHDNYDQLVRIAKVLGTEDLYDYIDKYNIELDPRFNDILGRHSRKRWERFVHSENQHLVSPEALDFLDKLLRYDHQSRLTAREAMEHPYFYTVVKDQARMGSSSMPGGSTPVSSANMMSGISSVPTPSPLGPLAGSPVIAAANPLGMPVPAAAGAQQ
# Chain of UniProt Q9Y616 (whole entry, looked up): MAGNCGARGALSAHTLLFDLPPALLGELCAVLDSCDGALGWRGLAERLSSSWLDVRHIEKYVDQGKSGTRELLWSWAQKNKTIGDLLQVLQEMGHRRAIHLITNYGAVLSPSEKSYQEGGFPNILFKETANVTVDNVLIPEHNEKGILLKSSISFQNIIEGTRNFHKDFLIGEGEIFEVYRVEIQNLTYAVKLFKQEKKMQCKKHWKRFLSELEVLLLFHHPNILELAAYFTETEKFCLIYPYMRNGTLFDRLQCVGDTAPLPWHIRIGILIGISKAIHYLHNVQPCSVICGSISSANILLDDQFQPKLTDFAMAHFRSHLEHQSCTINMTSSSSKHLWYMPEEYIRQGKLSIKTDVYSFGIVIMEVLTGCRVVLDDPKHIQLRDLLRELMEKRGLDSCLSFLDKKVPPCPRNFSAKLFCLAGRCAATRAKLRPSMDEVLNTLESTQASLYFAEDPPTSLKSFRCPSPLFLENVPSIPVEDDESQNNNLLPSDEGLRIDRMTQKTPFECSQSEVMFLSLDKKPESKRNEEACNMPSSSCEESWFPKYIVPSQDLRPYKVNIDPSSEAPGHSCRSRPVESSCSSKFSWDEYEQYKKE

# Set 1 — effect on: cell-free assay; method: competition with immobilised ligand; tested at: 1 µM
# Compound: CCCOc1ccc([C@@H]2[C@@H](C(=O)O)[C@H](c3ccc4c(c3)OCO4)CN2CC(=O)Nc2c(CC)cccc2CC)cc1
target,remaining binding [%]
"MAPK7 (Homo sapiens, UniProt Q13164)",93
"ERN1 (Homo sapiens, UniProt O75460)",90
"Tyrosine-protein kinase ABL1, non-phosphorylated (ABL1, Homo sapiens, UniProt P00519)",88
"MUSK (Homo sapiens, UniProt O15146)",97
"CDK15 (Homo sapiens, UniProt Q96Q40)",93
"IRAK3 (Homo sapiens, UniProt Q9Y616)",100
"ROCK1 (Homo sapiens, UniProt Q13464)",81
"CSNK2A1 (Homo sapiens, UniProt P68400)",100
"MAPK12 (Homo sapiens, UniProt P53778)",100
"EGFR (Homo sapiens, UniProt P00533, del747-750/T751S)",100
"HIPK3 (Homo sapiens, UniProt Q9H422)",85
"MAP3K3 (Homo sapiens, UniProt Q99759)",85
"PIK3CA (Homo sapiens, UniProt P42336)",84

# Set 2 — Compound: C=CCc1ccc(O)c(-c2cc(CC=C)ccc2O)c1; effect on: chloride current; method: whole-cell voltage clamp
# ANO1 del476-501/K629R: Anoctamin-1 (ANO1, Homo sapiens, UniProt Q5XXA6, del476-501/K629R)
# Chain of UniProt Q5XXA6 (whole entry, unmodified, looked up): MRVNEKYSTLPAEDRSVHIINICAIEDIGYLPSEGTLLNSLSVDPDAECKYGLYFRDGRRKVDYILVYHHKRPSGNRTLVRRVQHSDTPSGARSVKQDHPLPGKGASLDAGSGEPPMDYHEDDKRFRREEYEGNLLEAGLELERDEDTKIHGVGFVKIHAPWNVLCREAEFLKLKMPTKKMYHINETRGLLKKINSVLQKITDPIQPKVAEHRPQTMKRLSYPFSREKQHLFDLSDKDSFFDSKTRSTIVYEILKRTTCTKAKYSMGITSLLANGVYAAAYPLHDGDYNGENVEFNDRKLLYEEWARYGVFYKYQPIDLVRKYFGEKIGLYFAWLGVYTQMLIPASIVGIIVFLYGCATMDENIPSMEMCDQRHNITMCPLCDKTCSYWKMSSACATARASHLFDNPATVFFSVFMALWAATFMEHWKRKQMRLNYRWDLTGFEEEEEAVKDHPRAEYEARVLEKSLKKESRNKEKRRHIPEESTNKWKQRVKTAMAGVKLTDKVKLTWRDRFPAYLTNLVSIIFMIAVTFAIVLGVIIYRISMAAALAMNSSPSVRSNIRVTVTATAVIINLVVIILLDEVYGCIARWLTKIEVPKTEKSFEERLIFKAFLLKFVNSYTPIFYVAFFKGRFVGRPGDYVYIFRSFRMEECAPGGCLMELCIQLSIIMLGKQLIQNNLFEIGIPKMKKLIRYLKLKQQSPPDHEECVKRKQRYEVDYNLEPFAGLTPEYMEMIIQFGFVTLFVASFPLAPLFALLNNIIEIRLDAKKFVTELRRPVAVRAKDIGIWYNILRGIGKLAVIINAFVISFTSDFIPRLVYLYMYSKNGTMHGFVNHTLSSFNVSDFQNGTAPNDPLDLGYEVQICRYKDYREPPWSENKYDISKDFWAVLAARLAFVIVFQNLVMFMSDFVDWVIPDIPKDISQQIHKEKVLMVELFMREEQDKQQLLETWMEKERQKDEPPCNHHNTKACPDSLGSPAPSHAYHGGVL
target,test,setting,IC50 [µM]
"Anoctamin-1 (ANO1, Homo sapiens, UniProt Q5XXA6, D383A/del476-501)",,membrane voltage -20 mV,23.8
"Anoctamin-1 (ANO1, Homo sapiens, UniProt Q5XXA6, del476-501/R541D)",inhibitor,R515D mutant at 40 mV,133
"Anoctamin-1 (ANO1, Homo sapiens, UniProt Q5XXA6, del476-501/R541I)",inhibitor,R515I mutant at 80 mV,100
ANO1 del476-501/K629R,inhibitor,80 mV holding voltage,237
ANO1 del476-501/K629R,inhibitor,60 mV holding voltage,244
"Anoctamin-1 (ANO1, Homo sapiens, UniProt Q5XXA6, del476-501/F646A)",,membrane voltage 80 mV,24.8
"Anoctamin-1 (ANO1, Homo sapiens, UniProt Q5XXA6, del476-501/E649D)",inhibitor,E623D mutant at 80 mV,49.3
"Anoctamin-1 (ANO1, Homo sapiens, UniProt Q5XXA6, del476-501/R541K)",inhibitor,R515K mutant at -20 mV,16.4

# Set 3 — cell line: HuT78; method: RNA-seq; tested at: concentration not given; relative to: untreated control
# SMILES: CN1CC[C@H](c2c(O)cc(O)c3c(=O)cc(-c4ccccc4Cl)oc23)[C@H](O)C1
test,log2 fold change
measured: CCDC191,0.886
measured: CDCA3,-0.814
measured: AGBL2,1.11

# Set 4 — medium: 1,9-decadiene/PBS; pH: 7.4
Compound,logD
CC(C)C[C@@H]1NC(=O)[C@H](Cc2cscn2)NC(=O)[C@H](C)NC(=O)[C@H](CCC(=O)N2CCCC2)NC(=O)[C@@H](CCC(=O)N2CCCC2)NC(=O)[C@H](CC(C)C)NC(=O)[C@@H](CC(C)C)NC1=O,-3.24
CC(C)C[C@@H]1NC(=O)[C@H](CC(C)C)NC(=O)[C@@H](CC(C)C)NC(=O)[C@@H](C)NC(=O)[C@H](C(C)C)NC(=O)[C@H](C)NC(=O)[C@H](C)NC1=O,-2.37
CC(C)C[C@@H]1NC(=O)[C@H](C(C)C)NC(=O)[C@H](CCC(=O)N2CCCC2)NC(=O)[C@H](CC(C)C)NC(=O)[C@@H](Cc2cscn2)NC(=O)[C@H](CC(C)C)NC(=O)[C@@H](CC(C)C)NC1=O,-0.849
CC(C)C[C@@H]1NC(=O)[C@H](C(C)C)NC(=O)[C@H](C)NC(=O)[C@@H](CC(C)C)NC(=O)[C@H](C(C)C)NC(=O)[C@H](CC(C)C)NC(=O)[C@@H](CC(C)C)NC1=O,0.585
CC(C)C[C@@H]1NC(=O)[C@H](CC(C)C)NC(=O)[C@@H](CC(C)C)NC(=O)[C@H](C(C)C)NC(=O)[C@H](C(C)C)NC(=O)[C@H](Cc2cscn2)NC(=O)[C@H](C)NC1=O,-0.803
CC(C)C[C@@H]1NC(=O)[C@H](C)NC(=O)[C@H](CC(C)C)NC(=O)[C@@H](CCC(=O)N2CCCC2)NC(=O)[C@H](CC(C)C)NC(=O)[C@@H](CC(C)C)NC(=O)[C@H](CC(C)C)NC1=O,-0.636
CC(C)C[C@@H]1NC(=O)[C@H](Cc2cscn2)NC(=O)[C@H](CCC(=O)N2CCCC2)NC(=O)[C@H](CC(C)C)NC(=O)[C@@H](Cc2cscn2)NC(=O)[C@H](CC(C)C)NC(=O)[C@@H](CC(C)C)NC1=O,-1.16
CC(C)C[C@@H]1NC(=O)[C@H](C(C)C)NC(=O)[C@H](CC(C)C)NC(=O)[C@@H](CC(C)C)NC(=O)[C@H](CC(C)C)NC(=O)[C@H](C(C)C)NC(=O)[C@H](Cc2cscn2)NC1=O,0.78
CC(C)C[C@@H]1NC(=O)[C@@H](C)NC(=O)[C@@H](CC(C)C)NC(=O)[C@@H](C(C)C)NC(=O)[C@H](C(C)C)NC(=O)[C@H](CC(C)C)NC(=O)[C@@H](CC(C)C)NC1=O,0.752

# For quick reference, copied from above (set 4):
Compound,logD
CC(C)C[C@@H]1NC(=O)[C@H](C(C)C)NC(=O)[C@H](CCC(=O)N2CCCC2)NC(=O)[C@H](CC(C)C)NC(=O)[C@@H](Cc2cscn2)NC(=O)[C@H](CC(C)C)NC(=O)[C@@H](CC(C)C)NC1=O,-0.849
CC(C)C[C@@H]1NC(=O)[C@H](C(C)C)NC(=O)[C@H](C)NC(=O)[C@@H](CC(C)C)NC(=O)[C@H](C(C)C)NC(=O)[C@H](CC(C)C)NC(=O)[C@@H](CC(C)C)NC1=O,0.585
CC(C)C[C@@H]1NC(=O)[C@H](CC(C)C)NC(=O)[C@@H](CC(C)C)NC(=O)[C@H](C(C)C)NC(=O)[C@H](C(C)C)NC(=O)[C@H](Cc2cscn2)NC(=O)[C@H](C)NC1=O,-0.803
CC(C)C[C@@H]1NC(=O)[C@H](C)NC(=O)[C@H](CC(C)C)NC(=O)[C@@H](CCC(=O)N2CCCC2)NC(=O)[C@H](CC(C)C)NC(=O)[C@@H](CC(C)C)NC(=O)[C@H](CC(C)C)NC1=O,-0.636
CC(C)C[C@@H]1NC(=O)[C@H](Cc2cscn2)NC(=O)[C@H](CCC(=O)N2CCCC2)NC(=O)[C@H](CC(C)C)NC(=O)[C@@H](Cc2cscn2)NC(=O)[C@H](CC(C)C)NC(=O)[C@@H](CC(C)C)NC1=O,-1.16
